# Results from different studies.
# Compare with care: the assays were run in different laboratories. “And” joins repeats or separate records; there may be more than shown. ± gives the spread as reported.
# UniProt Q00987, sequence (whole entry, looked up): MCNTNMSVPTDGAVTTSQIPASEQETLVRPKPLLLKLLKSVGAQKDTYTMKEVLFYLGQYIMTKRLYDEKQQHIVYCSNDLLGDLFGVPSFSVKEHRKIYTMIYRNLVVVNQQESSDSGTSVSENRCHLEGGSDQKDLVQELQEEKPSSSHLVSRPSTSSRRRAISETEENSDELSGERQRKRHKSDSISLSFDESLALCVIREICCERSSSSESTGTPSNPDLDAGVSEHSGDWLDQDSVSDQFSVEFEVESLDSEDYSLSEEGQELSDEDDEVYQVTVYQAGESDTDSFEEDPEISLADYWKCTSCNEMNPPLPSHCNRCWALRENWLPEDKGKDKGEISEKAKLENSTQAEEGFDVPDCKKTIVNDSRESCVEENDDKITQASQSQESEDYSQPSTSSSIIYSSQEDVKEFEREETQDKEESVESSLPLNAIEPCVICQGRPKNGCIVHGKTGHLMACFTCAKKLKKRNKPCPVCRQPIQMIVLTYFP
# UniProt Q9UNU6, sequence (whole entry, unmodified, looked up): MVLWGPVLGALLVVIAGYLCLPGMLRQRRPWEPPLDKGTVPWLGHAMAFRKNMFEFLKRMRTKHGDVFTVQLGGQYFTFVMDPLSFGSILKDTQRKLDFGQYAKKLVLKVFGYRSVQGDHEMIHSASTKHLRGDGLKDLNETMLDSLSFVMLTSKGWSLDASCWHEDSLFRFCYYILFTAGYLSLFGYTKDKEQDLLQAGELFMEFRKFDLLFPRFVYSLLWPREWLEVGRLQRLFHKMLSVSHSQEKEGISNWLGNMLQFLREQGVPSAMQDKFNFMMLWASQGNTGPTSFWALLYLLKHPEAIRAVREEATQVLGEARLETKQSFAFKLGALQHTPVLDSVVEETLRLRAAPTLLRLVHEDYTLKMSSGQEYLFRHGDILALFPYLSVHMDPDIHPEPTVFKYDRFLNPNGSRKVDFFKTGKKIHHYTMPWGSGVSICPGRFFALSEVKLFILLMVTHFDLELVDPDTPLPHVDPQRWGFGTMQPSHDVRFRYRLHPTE
# UniProt Q14164, sequence (whole entry, looked up): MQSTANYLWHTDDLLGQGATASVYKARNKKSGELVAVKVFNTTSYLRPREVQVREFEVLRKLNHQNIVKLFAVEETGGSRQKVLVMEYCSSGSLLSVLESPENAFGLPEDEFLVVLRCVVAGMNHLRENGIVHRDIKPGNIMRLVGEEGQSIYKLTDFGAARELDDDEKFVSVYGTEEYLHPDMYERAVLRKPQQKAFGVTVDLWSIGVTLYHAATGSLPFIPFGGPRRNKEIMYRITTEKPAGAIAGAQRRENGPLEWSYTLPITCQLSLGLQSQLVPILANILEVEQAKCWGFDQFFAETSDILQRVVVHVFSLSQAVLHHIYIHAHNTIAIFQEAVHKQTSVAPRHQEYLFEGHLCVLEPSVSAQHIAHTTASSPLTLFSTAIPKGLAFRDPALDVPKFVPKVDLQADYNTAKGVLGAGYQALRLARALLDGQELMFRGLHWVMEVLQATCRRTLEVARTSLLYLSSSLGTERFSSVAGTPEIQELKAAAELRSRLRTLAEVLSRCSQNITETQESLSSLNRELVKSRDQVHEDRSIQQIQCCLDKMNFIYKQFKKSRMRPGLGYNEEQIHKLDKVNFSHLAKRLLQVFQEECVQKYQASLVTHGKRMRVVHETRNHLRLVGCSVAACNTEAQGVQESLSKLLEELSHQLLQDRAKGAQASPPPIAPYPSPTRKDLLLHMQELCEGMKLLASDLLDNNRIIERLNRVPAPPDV
# UniProt Q86UX6, sequence (whole entry, looked up): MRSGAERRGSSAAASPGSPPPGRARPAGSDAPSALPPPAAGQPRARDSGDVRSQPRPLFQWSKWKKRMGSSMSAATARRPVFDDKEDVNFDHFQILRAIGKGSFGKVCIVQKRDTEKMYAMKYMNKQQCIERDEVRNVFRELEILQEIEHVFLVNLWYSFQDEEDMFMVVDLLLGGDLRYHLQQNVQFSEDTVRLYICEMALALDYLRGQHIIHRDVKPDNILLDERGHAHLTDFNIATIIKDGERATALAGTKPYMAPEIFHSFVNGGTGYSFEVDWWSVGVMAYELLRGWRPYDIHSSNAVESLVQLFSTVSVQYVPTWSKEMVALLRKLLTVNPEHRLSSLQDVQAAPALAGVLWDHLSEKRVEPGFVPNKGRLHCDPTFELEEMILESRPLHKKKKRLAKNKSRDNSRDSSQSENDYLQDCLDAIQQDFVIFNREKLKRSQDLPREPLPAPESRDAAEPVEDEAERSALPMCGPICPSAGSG
# UniProt P20273, sequence (whole entry, unmodified, looked up): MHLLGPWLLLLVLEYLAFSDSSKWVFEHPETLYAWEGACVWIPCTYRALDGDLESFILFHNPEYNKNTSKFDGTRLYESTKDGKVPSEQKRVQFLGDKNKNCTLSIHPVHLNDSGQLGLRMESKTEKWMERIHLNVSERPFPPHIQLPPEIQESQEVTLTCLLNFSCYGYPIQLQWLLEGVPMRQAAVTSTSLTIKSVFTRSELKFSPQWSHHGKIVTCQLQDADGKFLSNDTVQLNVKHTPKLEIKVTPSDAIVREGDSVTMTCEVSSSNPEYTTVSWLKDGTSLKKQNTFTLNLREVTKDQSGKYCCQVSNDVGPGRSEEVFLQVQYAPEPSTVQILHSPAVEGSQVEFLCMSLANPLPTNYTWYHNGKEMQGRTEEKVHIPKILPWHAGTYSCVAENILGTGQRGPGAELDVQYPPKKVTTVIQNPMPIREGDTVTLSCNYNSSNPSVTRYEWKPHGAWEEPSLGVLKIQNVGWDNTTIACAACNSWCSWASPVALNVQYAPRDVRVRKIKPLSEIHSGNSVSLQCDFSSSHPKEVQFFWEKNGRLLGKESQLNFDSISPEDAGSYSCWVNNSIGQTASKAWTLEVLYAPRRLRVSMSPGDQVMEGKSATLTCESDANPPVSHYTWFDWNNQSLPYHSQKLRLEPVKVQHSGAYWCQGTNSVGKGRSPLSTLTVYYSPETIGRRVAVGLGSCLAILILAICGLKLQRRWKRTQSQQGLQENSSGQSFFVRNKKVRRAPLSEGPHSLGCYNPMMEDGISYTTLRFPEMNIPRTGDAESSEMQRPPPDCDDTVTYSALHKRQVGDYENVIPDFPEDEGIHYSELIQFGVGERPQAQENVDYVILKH
# UniProt P49674, sequence (whole entry, looked up): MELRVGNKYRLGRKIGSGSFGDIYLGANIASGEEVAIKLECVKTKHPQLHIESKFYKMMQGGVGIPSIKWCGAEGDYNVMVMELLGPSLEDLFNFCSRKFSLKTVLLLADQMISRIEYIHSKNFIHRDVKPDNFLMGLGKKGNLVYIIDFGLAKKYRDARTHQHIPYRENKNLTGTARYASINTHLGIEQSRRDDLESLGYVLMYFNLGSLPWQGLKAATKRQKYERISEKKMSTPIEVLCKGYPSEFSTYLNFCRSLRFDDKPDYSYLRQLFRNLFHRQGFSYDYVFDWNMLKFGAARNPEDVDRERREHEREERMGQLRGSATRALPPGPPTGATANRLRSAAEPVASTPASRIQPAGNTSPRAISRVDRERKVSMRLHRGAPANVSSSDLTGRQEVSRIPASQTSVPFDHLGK
# UniProt P33533, sequence (whole entry, looked up): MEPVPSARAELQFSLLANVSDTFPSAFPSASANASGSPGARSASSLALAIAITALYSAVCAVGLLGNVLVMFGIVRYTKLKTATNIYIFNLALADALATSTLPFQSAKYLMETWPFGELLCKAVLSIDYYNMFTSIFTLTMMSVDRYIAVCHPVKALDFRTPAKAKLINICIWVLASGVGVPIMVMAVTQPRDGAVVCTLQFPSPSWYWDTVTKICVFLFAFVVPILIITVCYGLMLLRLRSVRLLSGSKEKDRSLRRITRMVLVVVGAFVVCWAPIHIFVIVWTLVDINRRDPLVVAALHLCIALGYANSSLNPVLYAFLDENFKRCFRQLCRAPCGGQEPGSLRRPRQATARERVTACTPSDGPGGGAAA
# UniProt P10721, sequence (whole entry, looked up): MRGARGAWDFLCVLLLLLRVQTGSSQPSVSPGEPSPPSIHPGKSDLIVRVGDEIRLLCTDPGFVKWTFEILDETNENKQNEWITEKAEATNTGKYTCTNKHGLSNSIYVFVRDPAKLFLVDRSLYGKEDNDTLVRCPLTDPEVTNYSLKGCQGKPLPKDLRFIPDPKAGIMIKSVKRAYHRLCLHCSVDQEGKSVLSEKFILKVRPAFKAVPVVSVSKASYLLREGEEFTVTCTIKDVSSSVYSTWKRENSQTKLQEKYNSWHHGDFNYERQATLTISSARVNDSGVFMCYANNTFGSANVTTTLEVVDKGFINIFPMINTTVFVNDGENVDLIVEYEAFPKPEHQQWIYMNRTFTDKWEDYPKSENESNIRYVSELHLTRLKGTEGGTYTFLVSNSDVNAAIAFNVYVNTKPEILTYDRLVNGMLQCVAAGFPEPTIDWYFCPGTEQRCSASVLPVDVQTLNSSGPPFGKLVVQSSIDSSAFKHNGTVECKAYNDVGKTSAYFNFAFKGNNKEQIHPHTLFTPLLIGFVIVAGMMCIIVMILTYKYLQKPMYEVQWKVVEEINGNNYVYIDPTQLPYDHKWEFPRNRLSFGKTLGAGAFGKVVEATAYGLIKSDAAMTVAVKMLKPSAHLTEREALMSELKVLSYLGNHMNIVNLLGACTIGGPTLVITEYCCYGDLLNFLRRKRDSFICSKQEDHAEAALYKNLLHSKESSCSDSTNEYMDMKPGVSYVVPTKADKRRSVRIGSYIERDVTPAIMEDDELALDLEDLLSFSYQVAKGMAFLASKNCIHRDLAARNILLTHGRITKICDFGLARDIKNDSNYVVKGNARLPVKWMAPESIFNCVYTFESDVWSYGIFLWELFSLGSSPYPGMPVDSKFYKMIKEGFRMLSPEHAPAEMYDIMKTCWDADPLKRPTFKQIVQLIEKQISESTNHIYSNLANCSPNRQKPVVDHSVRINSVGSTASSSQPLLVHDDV
Compound,target,assay,system,setting,scale,measurement,result
CC(C)[C@H]1NC(=O)C[C@H]2/C=C/CCSSC[C@@H](NC1=O)C(=O)N[C@H](Cc1cccc3ccccc13)C(=O)NCC(=O)O2,"KIT (Homo sapiens, UniProt P10721)","enzyme activity, inhibitor",,10 µM,,inhibition,-1.2%
O=C(O)c1ccccc1/C=N/Nc1nc(-c2ccccc2Cl)cs1,"CSNK1E (Homo sapiens, UniProt P49674)","enzyme activity, inhibitor",,1 µM,,inhibition,10.5%
C[C@@H](O)[C@@H]1CN([C@@H](CC2CCCCC2)CN2CCC[C@H]2CN2CCNC[C@@H]2CO)CCN1CCC12CC3CC(CC(C3)C1)C2,"Oprd1 (Rattus norvegicus, UniProt P33533)",radioligand binding,rat brain membranes,"500 nM, pH 7.5, 25 °C, together with: 2 nM [3H]DPDPE",,remaining binding,91.7%
CN(C)[C@H]1C[C@@]23CC[C@@]4(O2)C(=CC[C@]2(C)[C@@H](c5ccc6ccncc6c5)CC[C@H]24)C=C3[C@@H](O)[C@@H]1O,"STK32C (Homo sapiens, UniProt Q86UX6)","ATP probe labelling, inhibitor, KiNativ profiling",,1 µM,,inhibition,2.6%
C[C@]12C(c3cccnc3)=C[C@H]3[C@@H](CCC4=C[C@H](O)CC[C@@]43C)[C@@H]1CC[C@@H]2O,"7-alpha-hydroxycholest-4-en-3-one 12-alpha-hydroxylase (Homo sapiens, UniProt Q9UNU6, W281F)",inhibitor,,"80 µM, together with: 7α-hydroxycholest-4-en-3-one 0.54 µM",,remaining activity,13 ± 2.78%
CC(C)C[C@@H](N)C(=O)NCC(=O)N[C@H](C)C(=O)N[C@H](CO)C(=O)N[C@H](Cc1c[nH]c2ccccc12)C(=O)N[C@H](Cc1c[nH]cn1)C(=O)N[C@H](CCCNC(=N)N)C(=O)N1CCC[C@@H]1C(=O)N[C@H](CC(=O)O)C(=O)N[C@H](CCCCN)C(=O)N[C@H](CCCCN)C(=O)N[C@H](CCCNC(=N)N)C(=O)NCCCCCC(=O)N[C@@H](CCCCN)C(=O)N[C@@H](CCCNC(=N)N)C(=O)N[C@@H](CCCCN)C(=O)N[C@@H](CS)C(=O)N[C@H](C(=O)N[C@@H](CCCNC(=N)N)C(=O)N1CCC[C@H]1C(=O)N[C@@H](CC(N)=O)C(=O)N[C@@H](CC(N)=O)C(=O)N[C@@H](CC(N)=O)C(=O)N[C@H](C(N)=O)[C@@H](C)O)[C@@H](C)O,"CCR5 (Homo sapiens, UniProt P51681)",,CHO expressing CCR5,"50 µM, 40 min, 4 °C, together with: mAb 45523 4 µg/mL",,inhibition of binding,10.4%
CC[C@H](C)[C@@H]1NC(=O)[C@H](CC(C)C)NC(=O)CNC(=O)[C@H](CCCNC(=N)N)NC(=O)[C@H](Cc2c[nH]c3ccccc23)NC(=O)[C@H](CCSC)NC(=O)[C@H](CO)NC(=O)[C@H](CCC(=O)O)NC(=O)[C@H](Cc2ccccc2)NC(=O)[C@H](CC(=O)O)NC(=O)[C@H]([C@@H](C)O)NC(=O)CNC(=O)[C@H](CCC(=O)O)NC(=O)[C@H]([C@@H](C)O)NC(=O)CNC(=O)[C@H](CC(=O)O)NC1=O,"MDM2 (Homo sapiens, UniProt Q00987)","MDM2-ligand binding, inhibitor, AlphaLISA competition",,"0.1953 µM, together with: GST-tagged MDM2 ligand",lower = stronger inhibition,AlphaLISA signal,8260 a.u. and 7980 a.u. and 7740 a.u.
CS(C)(=O)=Nc1ccc(-c2ccc(-c3nc4cc(O[C@@H]5CO[C@H]6[C@@H]5OC[C@H]6O)[nH]c4cc3F)cc2)cc1,"IKBKE (Homo sapiens, UniProt Q14164)","enzyme activity, inhibitor",,10 µM,,inhibition,-4%
O=C1NC(=O)c2c1c1cc(F)c[n+]3c1c1c2c2cc(O)ccc2[n]1[Ru-4]312([N]=C=S)[S+]3CC[S+]1CC[S+]2CC3 (stereo not drawn),"ABL2 (Homo sapiens, UniProt P42684)",enzyme activity,,"100 nM, human enzyme, together with: 10 µM ATP",reference: untreated,remaining activity,93%
Cc1cc(Nc2nc(C[C@@]3(C(=O)O)CCN(Cc4cccc(Cl)c4F)[C@H](C)C3)cc(C)c2F)[nH]n1,"Androgen receptor (AR, Homo sapiens, UniProt P10275)",agonist,,10 µM,,activation,-12.7%
C=C(c1ccccc1)[C@H](N)P(=O)(O)O,"PAL1 (Petroselinum crispum, UniProt P24481, Y110F)","binding, ITC",,,,ΔG,-27.2 kJ/mol
Cc1ncc([N+](=O)[O-])n1CC(O)Cn1cc(CO[C@]2(C(=O)O)C[C@H](O)[C@@H](NC(=O)CF)[C@H]([C@H](O)[C@H](O)CNC(=O)c3ccc(Oc4ccccc4)cc3)O2)nn1 (stereo partly drawn),"CD22 (Homo sapiens, UniProt P20273)",isothermal titration calorimetry,,,,ΔH,-42.68 ± 0.0837 kJ/mol

# For quick reference, copied from above:
Compound,target,assay,system,setting,scale,measurement,result
CN(C)[C@H]1C[C@@]23CC[C@@]4(O2)C(=CC[C@]2(C)[C@@H](c5ccc6ccncc6c5)CC[C@H]24)C=C3[C@@H](O)[C@@H]1O,"STK32C (Homo sapiens, UniProt Q86UX6)","ATP probe labelling, inhibitor, KiNativ profiling",,1 µM,,inhibition,2.6%
C[C@]12C(c3cccnc3)=C[C@H]3[C@@H](CCC4=C[C@H](O)CC[C@@]43C)[C@@H]1CC[C@@H]2O,"7-alpha-hydroxycholest-4-en-3-one 12-alpha-hydroxylase (Homo sapiens, UniProt Q9UNU6, W281F)",inhibitor,,"80 µM, together with: 7α-hydroxycholest-4-en-3-one 0.54 µM",,remaining activity,13 ± 2.78%
